Experimental data collected from several papers.
Every numbered part comes from another study and shows a few of its results, in no order.

Series 1
Target: Transcription factor Sp1 (SP1, Homo sapiens, UniProt P08047, residues 1-785, full length assumed)
Sequence of UniProt P08047 (whole entry, looked up): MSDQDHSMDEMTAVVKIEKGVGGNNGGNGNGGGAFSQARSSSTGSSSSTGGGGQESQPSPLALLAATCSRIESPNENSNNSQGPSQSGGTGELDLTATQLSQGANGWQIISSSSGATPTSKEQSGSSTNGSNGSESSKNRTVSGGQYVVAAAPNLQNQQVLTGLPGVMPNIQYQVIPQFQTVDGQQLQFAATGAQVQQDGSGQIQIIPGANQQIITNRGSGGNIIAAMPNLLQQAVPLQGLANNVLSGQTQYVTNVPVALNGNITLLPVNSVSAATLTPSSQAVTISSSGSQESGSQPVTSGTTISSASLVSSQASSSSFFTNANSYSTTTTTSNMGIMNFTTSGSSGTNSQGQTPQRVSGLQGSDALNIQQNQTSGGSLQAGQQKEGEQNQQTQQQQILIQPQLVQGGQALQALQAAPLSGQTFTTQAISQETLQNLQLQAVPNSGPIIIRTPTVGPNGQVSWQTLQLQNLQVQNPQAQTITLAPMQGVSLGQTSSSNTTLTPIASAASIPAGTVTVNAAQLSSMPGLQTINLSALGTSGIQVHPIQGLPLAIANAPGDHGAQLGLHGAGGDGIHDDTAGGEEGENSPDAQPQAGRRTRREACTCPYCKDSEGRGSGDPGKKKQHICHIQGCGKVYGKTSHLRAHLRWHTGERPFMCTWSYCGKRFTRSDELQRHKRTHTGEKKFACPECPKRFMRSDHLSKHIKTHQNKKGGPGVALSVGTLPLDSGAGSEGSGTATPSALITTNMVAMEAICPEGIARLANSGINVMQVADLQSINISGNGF
Technique: protein-binding microarray
Molecule type: double-stranded DNA, one strand shown
Matrix: in vitro
Tested at: not given
Notes: k-mer, scored over probes, only values ≥0.25
Direction: higher = stronger binding
Sequence	E-score
GTTATACA	0.26
GGGCGGAA	0.381
ATGTGTTA	0.276
TATGGGGA	0.337
AATAAGTA	0.28
GGGCGTCA	0.302
CACCGCCC	0.418
CCCGACCC	0.287
CCCGAACA	0.257
AAGGAGGG	0.279
AATGGGCG	0.257
AACAGGGG	0.302
GTCTAGTA	0.283
GTATATAA	0.274
CACCCTAC	0.274
CATTGTAC	0.288
ATGTACGA	0.266
CCCCTGTA	0.269
AAGGGGTG	0.348
CCCTCCCG	0.401
GGGGAAAA	0.264
GGGAGGGA	0.416
TATCGGGA	0.273

Series 2
Target: Ras GTPase-activating protein-binding protein 1, full length (G3BP1, Homo sapiens, UniProt Q13283)
Sequence of UniProt Q13283 (whole entry, looked up): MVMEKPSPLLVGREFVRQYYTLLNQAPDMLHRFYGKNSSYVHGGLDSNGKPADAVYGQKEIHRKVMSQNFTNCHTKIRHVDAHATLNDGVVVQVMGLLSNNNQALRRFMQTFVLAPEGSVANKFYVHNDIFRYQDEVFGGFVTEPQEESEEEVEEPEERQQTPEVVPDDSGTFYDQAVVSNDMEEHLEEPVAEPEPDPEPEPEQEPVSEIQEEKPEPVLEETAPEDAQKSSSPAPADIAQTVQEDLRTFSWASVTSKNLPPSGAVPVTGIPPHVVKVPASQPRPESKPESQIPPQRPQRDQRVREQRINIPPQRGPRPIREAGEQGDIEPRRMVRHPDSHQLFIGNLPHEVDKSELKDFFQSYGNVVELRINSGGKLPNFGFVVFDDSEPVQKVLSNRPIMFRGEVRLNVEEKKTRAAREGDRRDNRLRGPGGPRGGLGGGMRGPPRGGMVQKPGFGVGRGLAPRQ
Technique: RNA Bind-n-Seq
Molecule type: RNA
Matrix: in vitro
Tested at: 200 nM
Notes: whole 134-nt RNA, ends assumed
Together with: 150 mM LiCl
Reference: input library
Direction: higher = stronger binding
Library: 7-deaza-guanosine replaces G
All sequences stand within: GGGAGUUCUACAGUCCGACGAUC … UGGAAUUCUCGGGUGUCAAGG
Sequence	log2 enrichment
CAAGUCCUGUGCUACACAUCGUAUGUACCGAAUCGGUUUUGGGGUUUUGGUUUUGGAAAGUAUUAUGUUACGCCGUUCGGAUCUGCACUU	-1.35
GCAGGAAGUAAAAACAAAUGGAAAUGCUUCGGAUAGUGGCAGGGGUGGGGGUUGCUAAGGAAAGGGUGGGAUGGGAGGGGGUAAAGAGUU	-0.862
CUCAAGUCCUGUGCUACACAUCGUAUGUACCGAAUCGGGUUGGUUGGGUUGGGAAAGUAUUAUGUUACGCCGUUCGGAUCUGCACUUCCA	-0.227
UCCUGUGCUACACAUCGUAUGUACCGAAUCGGAAAAAAGGAAAAAAGGGGAAAAAAGGGAAAGUAUUAUGUUACGCCGUUCGGAUCUGCA	-0.532
UCCUGUGCUACACAUCGUAUGUACCGAAUCAAACCCCCCCAAAUUUAAAUUUUUUUAAAAAAGUAUUAUGUUACGCCGUUCGGAUCUGCA	1.48
GUCCUGUGCUACACAUCGUAUGUACCGAAUCGGGUUUUUUUGGGAGGGUUUUUUUGGGAAAGUAUUAUGUUACGCCGUUCGGAUCUGCAC	0.0126
UCAAGUCCUGUGCUACACAUCGUAUGUACCGAAUCGGGGCCCGGCCCGGGCCCGGAAAGUAUUAUGUUACGCCGUUCGGAUCUGCACUUC	-0.961
UGGGAGGUGGAUUUUGUUUAUUUUUUUAGCGCAUUUCCAGGGGUGGGAAUUUUUUUUUAAUAUGUGUCAUGAAUAAAGUUGUUUUUGAAA	0.186

Series 3
Target: Phosphate system positive regulatory protein PHO4, full length, GST-tagged (PHO4, Saccharomyces cerevisiae, UniProt P07270, residues 1-312)
Technique: competition protein-binding microarray
Molecule type: double-stranded DNA, one strand shown
Matrix: in vitro
Tested at: 2 µM
Notes: whole 60-bp probe, lowest competitor level
Together with: Cbf1 competitor, 0.05 µM
Direction: higher = stronger binding
All sequences stand within: … GTCTTGATTCGCTTGACGCTGCTG
Residues (chain): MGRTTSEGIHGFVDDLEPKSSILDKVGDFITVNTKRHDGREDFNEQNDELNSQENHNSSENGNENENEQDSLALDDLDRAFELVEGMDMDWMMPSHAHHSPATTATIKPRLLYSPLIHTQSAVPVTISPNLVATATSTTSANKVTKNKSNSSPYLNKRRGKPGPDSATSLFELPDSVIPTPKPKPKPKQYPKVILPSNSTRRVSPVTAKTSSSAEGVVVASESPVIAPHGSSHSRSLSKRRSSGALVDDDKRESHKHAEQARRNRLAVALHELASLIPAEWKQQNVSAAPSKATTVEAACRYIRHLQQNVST
Sequence	fluorescence intensity [a.u.]
CTTTCCCGATCTTGAGGGGTGGGTGTAGCACATTTG	5200
CGCCAATCCAGCATGAGCATGACGCCGGTTCGAGAA	6330
GTCTTGTCTCATTTTCACGTGTTGTTCCCCACTTCA	12600
AAATTACTAAGTTGGTTAGTGGGTGACGCCGTATGA	3800
CTTCTGTAAATTTGGCTCGTGGGTGGACGCGCCCCG	8540
CTAGATGATAACCGACACGGGTTGGAAGACGGAAAT	8950
TGAAGGATTTGTCCACACGTGGAATCAACATATCTG	17300
TATTGAAGGTACCATCACATGCTTACTCACTTTGCG	8720
ACCAAATGTGGAAATGGCATGACAACCCCCCAGACA	5610
CATACCCAACCTTTTCACGTGTTCTAAGATATTTGT	13900
CGCAGCCTCTACCGTCACGTGTAACAGTACGGCAGG	13300
ATGTACAGTGGTACCCTCGTGTCCTCTGCAGCGAGA	11200
ATTTTAACTTCATCTACCGTGATGGCTATTACCACC	4810
GCTAGAGTAAAATAGTGCATGACAAAAGATGAGCTA	4850
CGTCCTAGTGATTGCGCCGTGGGTGCCATGAGGAAG	7230
CTAACGAAGGTTTGGTCCGTGGGTGACAAGCCAAGT	6390
TGCGCAACAACTTGGAGAGTGGGTGTATGTCTAGAA	4950
CCTCGTCTGCTCTTCCACGTTCAGATGTTCCCTTGA	8820
GTACTGGCTGAGCCGGTCGTGCCGAAAATGAAAATA	7540

Series 4
Target: RNA binding protein fox-1 homolog 2, RRM domain, GST-SBP tag (RBFOX2, Homo sapiens, UniProt O43251-10, residues 100-194)
Technique: RNA Bind-n-Seq
Molecule type: RNA
Matrix: in vitro
Tested at: 365 nM
Notes: natural RNA segment, single round, ends assumed
Reference: no-protein control
Direction: higher = stronger binding
All sequences stand within: GGGAGUUCUACAGUCCGACGAUC … UGGAAUUCUCGGGUGCCAA
Residues (chain): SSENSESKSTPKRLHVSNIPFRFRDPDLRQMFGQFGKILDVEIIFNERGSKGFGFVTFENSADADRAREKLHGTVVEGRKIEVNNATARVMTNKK
Sequence	RBNS enrichment (R)
CUGCAGGGGGGCCCCCACAAUCAUGCCAUUGCUGCAGUAGCUGUGGCCCUAAAGCAGGCCUGCACCCCCAUGUUCCGGGAGUACUCCCUGCAGGUUCUGAAGAAUGCUCG	0.223
UUACCAAAGUAUAAAUUUAUUUCUUAAAAUGUGAGUAAUAGGAAUUUUAAAGAUUUAUAUAAUGCUUUUGAACACUCUGAGAAAGGGUUGUUUUUUUUCAUUGGGUUAAU	0.516
UACUUGCUUCUGUCUGACACCUUCUCCCUGUUGGCCUGAAGGGAGCUUAGAAUGCAGCCCUACCUGGAGAUAGUGCGGGCACCUGUGGCCAAGUGGAGCAGAGGUGGACA	3.06
UCCGCGCUGAAGAACUUACCGAAGCAUCAGGGGCAGAAGAGACCACAGACAUGGUGUCUGCAGUUUCCCAGCUGUCCGACUCCCCGGACACCACAGAGGAAGCCACCCCA	0.523
CUGAUGCAUCAAACUUGAGUUUUUUCCACCUCAUCUUUCCCAGUGUUUGGAAAGGUGUGAGGGUAGAGGGUUGUUUUUUUUUUUAAGGUGUAUUUGAAUGACUAUUUUAU	0.608
UUCCACGCUGAGGUACCCUCUGCAGUGGUAGGCAGCCUGCCCAUAUGGCCACUUGGGCCUGACUCUAAGUUUCUGCCCCAGUGAAACAGACCAUGUGCAAUUCCCAGGUA	0.199
UUGUUAGACUUAAUAAAUCACUGUUAAAUUUAAAGAUGACAGUUACCUUGGAAAGUUCACUAAUACUUCGCUCCAAGGCGUCUGUAAAAGAAGAUAUCUUUAUUGGAGCA	0.339
AGAAGAACAUUCUUUUCAAUGGAGCUCAUCUUCUAUCUCUAGGGUCUGUUCAGCCUUUCAUCUAUCCAUCCUUCCUCUUUAUUGGUAGAAGAAACAGUGGAGAGUAGCCA	0.285
